Measured values of several laboratories.
Each numbered part is a random draw from the data of one study; scales do not carry over between parts.

Set 1 — mode: antagonist; quantity: IC50
Target: Beta-1 adrenergic receptor (ADRB1, Homo sapiens, UniProt P08588)
Chain of UniProt P08588 (whole entry, looked up): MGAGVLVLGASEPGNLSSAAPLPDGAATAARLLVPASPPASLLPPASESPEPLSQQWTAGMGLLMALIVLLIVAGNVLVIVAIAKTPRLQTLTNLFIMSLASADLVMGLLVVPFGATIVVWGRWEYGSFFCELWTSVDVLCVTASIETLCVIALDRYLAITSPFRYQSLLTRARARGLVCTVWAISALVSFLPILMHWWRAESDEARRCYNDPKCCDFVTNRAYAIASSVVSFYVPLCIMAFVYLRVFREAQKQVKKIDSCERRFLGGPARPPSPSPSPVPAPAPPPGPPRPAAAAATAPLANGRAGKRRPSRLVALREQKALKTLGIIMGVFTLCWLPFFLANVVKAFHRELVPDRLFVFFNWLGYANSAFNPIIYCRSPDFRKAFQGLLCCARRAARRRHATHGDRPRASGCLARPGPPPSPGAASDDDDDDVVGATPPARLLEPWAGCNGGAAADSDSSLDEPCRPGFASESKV
c1ccc(-c2cccc(-n3ccnc3-c3cc4n(n3)CCCNC4)c2)nc1: ≥ 100 µM
Cc1oc(C(O)c2ccccc2)nc1C(=O)NCCN1CCOCC1 (centres unmarked): ≥ 100 µM
Cc1nc(Nc2cnn(C3CCNCC3)c2)nc2c1N(C)C(=O)c1cc3ccccc3cc1N2C: ≥ 100 µM
Clc1cccc(N2CCN(Cc3cnn(-c4ccccc4)c3)CC2)c1: ≥ 100 µM
Fc1ccc(-c2c[nH]c([C@@H]3COCCN3Cc3cccnc3)n2)c(F)c1: ≥ 100 µM
Cc1noc2c(-c3ccc(N4CCOCC4)cc3)cc(-c3cccs3)nc12: ≥ 100 µM
Cc1noc2c(NCCc3ccccn3)cc(-c3ccccc3)nc12: ≥ 100 µM
COc1ccccc1N1CCN([C@@H]2[C@H](O)[C@H](CO)O[C@@H]2CN(Cc2ccc(F)cc2)Cc2ccc(F)cc2)CC1: 31.6 µM
COc1ccc(OCC(O)CN2CCC(O)CC2)c(CN(C)Cc2csc(C)n2)c1 (centres unmarked): ≥ 100 µM
COc1ccccc1NC(=O)c1sc2nc(C)c(C(=O)Nc3ccc(C)cc3C)c(-c3ccc(C)o3)c2c1N: ≥ 100 µM
COc1ccccc1N1CCN(CC[C@@H]2CC[C@H](O)[C@@H](C(=O)Nc3ccccc3)O2)CC1: ≥ 100 µM
O=C(Nc1ccc([C@@H](O)[C@H]2COCC(=O)N2Cc2ccc(F)cc2)cc1)c1cccs1: ≥ 100 µM
Cc1cc2c(F)c(Oc3ncnn4cc(OC[C@@H](C)OC(=O)[C@H](C)N)c(C)c34)ccc2[nH]1: ≥ 100 µM
O=C(c1cc(-c2ccc(F)cc2)nc2ccccc12)N1CCCC1c1nc(C2CCOCC2)no1 (centres unmarked): ≥ 100 µM
CC(C)SCC[C@@H](N)[C@H](O)C(=O)NNC(=O)c1cccc(Cl)c1: ≥ 100 µM
COc1ccccc1N1CCN(C(=O)c2cc(Br)cn2C(C)C)CC1: ≥ 100 µM

Set 2 — observed: binding; technique: radioligand binding; tested at: 10 µM; quantity: inhibition
Target: Beta-1 adrenergic receptor (ADRB1, Homo sapiens, UniProt P08588)
Cc1nc(N2CC[C@@H](O)C2)ncc1-c1cc(C(F)(F)F)cc2[nH]ncc12: -14.5%
COCc1nc2cnc3cc(-c4c(C)noc4C)c(OC[C@H]4CCNC4)cc3c2n1[C@H](C)c1ccccc1: 4.82%
O[C@]1(C(F)(F)F)CCCC[C@H]1Nc1ccc(F)cc1: 20.2%
Cc1nccc(COC(=O)N2C[C@@H]3[C@@H](CNC(=O)c4ccc5[nH]nnc5c4)[C@@H]3C2)n1: 12.4%
Nc1c(C(=O)NCc2ccc(C(=O)NCCCC3CCCCC3)cc2)cnn1-c1ccccc1: 25.3%
COc1cccc(CNC(=O)c2nc3scc(COCc4ccc(C(=O)O)cc4)c3c(=O)[nH]2)c1: 29.9%
CN(C)C(=O)Cn1cc(-c2nc([C@@](C)(c3ccc(-c4cnc(N)nc4)cc3)C3CC3)no2)cn1: -12.8%
Cc1nc(C2CCN(C(=O)c3ccc(OC(F)(F)F)cc3N)CC2)c2ncc(N3CCN(C)CC3)cc2n1: 17.9%
CC(=O)Nc1c(F)cc(C(=O)N[C@H]2CC[C@H](O)CC2)cc1O[C@@H](C)c1ccccc1: -6.85%
O=C(NC[C@@H]1[C@H]2CN(C(=O)OCc3cc(C(F)(F)F)cc(C(F)(F)F)c3)C[C@@H]12)c1ccc2[nH]nnc2c1: 13.3%
O=C1CCc2cc(Nc3cc(OC4CCOCC4)c([N+](=O)[O-])cc3Cl)ccc2N1: 3.3%
O=C([C@H]1C[C@H](O)CN1c1ccc(Cl)cc1)N1CC2COCC(C1)N2Cc1ccc(Cl)cc1: 6.12%
Cc1c(NC(=O)c2cc(C(N)=O)nc3cc(F)ccc23)c(C(F)(F)F)nn1Cc1ccc(C(C)(C)C)cc1: 21.2%
O=C(Nc1cccnn1)N1CCC(=Cc2cccc(Oc3ccc(C(F)(F)F)cn3)c2)CC1: 16.5%
CS(=O)(=O)NCC[C@H](NC(=O)c1cncc2c1cnn2-c1ccc(F)cc1)c1ccnc(S(C)(=O)=O)c1: -20.5%
C[C@@H]1CN(c2cc(-c3nn(C)c4ccc(OC5(C)CC5)cc34)ncn2)C[C@H](C)O1: 5.75%
Cc1nc(Cc2cccc(C(F)(F)F)c2)sc1-c1ccc(C(N)=O)nc1: 7.56%
CCOCCn1cc(C(=O)Nc2ccc(-n3nc(-c4cccnc4)cc3C(F)(F)F)cn2)ccc1=O: -9.69%
C[C@@]1(Cc2ccc(C#N)cc2)C(=O)N(c2cc(Cl)cc(Cl)c2)c2ncc(C(=O)NC3(c4nc(C5CCC5)no4)CC3)n21: 29.7%
COCCc1ccc(-c2c(C)nc3c(N4CCOCC4)ccnn23)cn1: 3.43%
COc1nc2ccc([C@@](O)(c3ccccc3)C3CCN(C(C)=O)CC3)cc2c(Cl)c1Cc1ccc(-n2cccn2)cc1: 15.2%

Set 3 — observed: enzyme activity; mode: inhibitor; tested at: 0.5 µM; relative to: control; quantity: remaining activity
Target: SRSF protein kinase 2 (SRPK2, Homo sapiens, UniProt P78362)
Chain of UniProt P78362 (whole entry, looked up): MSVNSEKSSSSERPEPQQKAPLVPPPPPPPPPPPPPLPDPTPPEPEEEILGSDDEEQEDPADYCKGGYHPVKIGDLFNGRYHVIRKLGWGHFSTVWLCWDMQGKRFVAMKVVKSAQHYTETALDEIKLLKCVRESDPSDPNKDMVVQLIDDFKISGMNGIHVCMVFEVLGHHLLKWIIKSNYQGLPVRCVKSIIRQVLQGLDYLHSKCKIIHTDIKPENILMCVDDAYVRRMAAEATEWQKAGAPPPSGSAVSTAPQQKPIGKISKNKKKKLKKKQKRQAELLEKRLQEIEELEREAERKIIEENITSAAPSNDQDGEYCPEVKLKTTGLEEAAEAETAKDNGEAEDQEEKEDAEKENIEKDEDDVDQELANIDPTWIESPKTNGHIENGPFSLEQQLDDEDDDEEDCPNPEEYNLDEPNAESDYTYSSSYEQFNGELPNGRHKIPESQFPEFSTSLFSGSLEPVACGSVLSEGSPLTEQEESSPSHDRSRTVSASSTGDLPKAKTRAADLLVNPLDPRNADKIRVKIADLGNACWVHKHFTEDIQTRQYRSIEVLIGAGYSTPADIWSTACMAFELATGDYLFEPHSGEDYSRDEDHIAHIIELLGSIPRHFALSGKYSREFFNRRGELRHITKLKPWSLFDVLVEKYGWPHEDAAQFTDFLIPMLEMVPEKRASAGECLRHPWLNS
CCc1[nH]c(-c2ccc(OC)cc2)nc1-c1ccncc1: 101%
COc1ccc(S(=O)(=O)N(CCO)c2ccccc2CN(C)CC=Cc2ccc(Cl)cc2)cc1: 98.5%
O=C1Cc2c([nH]c3ccc([N+](=O)[O-])cc23)-c2ccccc2N1: 109%
COc1cc(Nc2c(C#N)cnc3cc(OCCCN4CCN(C)CC4)c(OC)cc23)c(Cl)cc1Cl: 101%
Nc1nccc(-c2c(-c3ccc(F)cc3)ncn2C2CCNCC2)n1: 96.4%
O=C1NC(=O)C(c2c[nH]c3ccccc23)=C1c1c[nH]c2ccccc12: 84.3%
CC(=O)c1ccc(N2CCOCC2)cc1O: 98.6%
CC(C)(C)n1nc(Cc2cccc3ccccc23)c2c(N)ncnc21: 92.4%
Cc1ccc(NC2=CC(=O)c3sc(C)nc3C2=O)cc1: 101%
Oc1ccc(Nc2nc(-c3ccc(Cl)cc3)cs2)cc1: 104%
O=S(=O)(NCCNC/C=C/c1ccc(Br)cc1)c1cccc2cnccc12: 88.3%
CSc1nc(-c2ccnc(N[C@@H](C)c3ccccc3)c2)c(-c2ccc(F)cc2)[nH]1 (racemic): 94.4%
Cc1cncc2cccc(S(=O)(=O)N3CCCN(C(=O)CN)C[C@@H]3C)c12: 97.1%
CC[n+]1c(/C=C/N(C)c2ccccc2)n(-c2ccccc2)c2ccc(-c3nc4ccccc4s3)cc21: 105%
CCCC(=O)Oc1ccc2[nH]c(C(=O)c3cc4ccccc4[nH]3)cc2c1: 89.4%
CC#CC(=O)Nc1cc2c(Nc3ccc(F)c(Cl)c3)ncnc2cn1: 69.2%
Nc1nc(Nc2ccc(S(N)(=O)=O)cc2)nn1C(=O)c1c(F)cccc1F: 54.9%
Cc1cc(Nc2nc(-c3ccccc3)nc3ccccc23)n[nH]1: 68.8%
N#CC(=C(N)Sc1ccc(N)cc1)c1ccccc1C(F)(F)F: 99.5%
Nc1ncnc2c1cnn2-c1ccccc1: 104%

Set 4 — quantity: inhibition
SMILES: COc1cc(C(=O)N2CCC(N3CCN(C)CC3)CC2)ccc1Nc1ncc2c(n1)N(C)c1ccccc1C(=O)N2C
NEK4 (mouse); probe labelling, KiNativ, measured: DLkTQNVFLTR peptide, LYS2 site; brain tissue lysate (mouse); 1 µM, with: ATP acyl-phosphate probe: -27.9%
ATR (mouse); probe labelling, KiNativ, measured: FYIMMCkPK peptide, ATP site; brain tissue lysate (mouse); 0.1 µM, with: ADP acyl-phosphate probe: 12.5%
CDK9 (mouse); probe labelling, KiNativ, measured: DMkAANVLITR peptide, LYS2 site; brain tissue lysate (mouse); 1 µM, with: ADP acyl-phosphate probe: -1.4%
MYLK; KiNativ ATP probe; human PBMC lysate; 0.1 µM, ATP loop site: -6%
YANK1/YANK2/YANK3 (mouse); probe labelling, inhibitor, KiNativ ActivX ADP probe; mouse brain lysate; 1 µM, Lys1 site peptide: 3%
human PBMC; probe labeling, inhibitor, KiNativ profiling; cell lysate; concentration not given, domain 2, LYS1 site, with: ADP acyl-phosphate probe 0.1 µM: 2.7%
MAP3K2 (human); probe labelling, KiNativ ATP probe; human PBMC lysate; concentration not given, LYS1 labelled site: -1.9%
RSK2 domain 1 (mouse); probe labelling, inhibitor, KiNativ ActivX ATP probe; mouse brain lysate; 0.1 µM, activation loop peptide: 1%
TNIK (human); probe labelling, KiNativ, measured: Lys1 site peptide; PBMC lysate (human); 1 µM, with: ATP acyl-phosphate probe: 6.1%
MAP3K3 (human); probe labelling, KiNativ ATP probe; human PBMC lysate; concentration not given, LYS1 labelled site: -11.4%
MARK2 (human); probe labelling, KiNativ ATP probe; human PBMC lysate; concentration not given, LYS1 labelled site: -1.2%
human PBMC; probe labeling, inhibitor, KiNativ profiling, measured: VDTHALYAMkTLR; cell lysate; concentration not given, LYS1 site, with: ATP acyl-phosphate probe: -9.2%
NUAK2 human; KiNativ profiling; human PBMC lysate; concentration not given, ATP probe, Lys1 site: 2%
EGFR (mouse); probe labelling, KiNativ, measured: IPVAIkELR peptide, LYS1 site; brain tissue lysate (mouse); 1 µM, with: ATP acyl-phosphate probe: -14.5%
human PBMC; probe labeling, inhibitor, KiNativ profiling; cell lysate; concentration not given, LYS1 site, with: ADP acyl-phosphate probe 1 µM: 2%
MYLK; KiNativ ADP probe; mouse brain lysate; 1 µM, LYS1 site: 12.5%
STLK5 (mouse); probe labelling, inhibitor, KiNativ ActivX ADP probe; mouse brain lysate; 1 µM, activation loop peptide: 4.6%

For quick reference, copied from above (set 2):
CC(=O)Nc1c(F)cc(C(=O)N[C@H]2CC[C@H](O)CC2)cc1O[C@@H](C)c1ccccc1: -6.85%
O=C([C@H]1C[C@H](O)CN1c1ccc(Cl)cc1)N1CC2COCC(C1)N2Cc1ccc(Cl)cc1: 6.12%
Cc1nccc(COC(=O)N2C[C@@H]3[C@@H](CNC(=O)c4ccc5[nH]nnc5c4)[C@@H]3C2)n1: 12.4%
COc1nc2ccc([C@@](O)(c3ccccc3)C3CCN(C(C)=O)CC3)cc2c(Cl)c1Cc1ccc(-n2cccn2)cc1: 15.2%
Nc1c(C(=O)NCc2ccc(C(=O)NCCCC3CCCCC3)cc2)cnn1-c1ccccc1: 25.3%
COc1cccc(CNC(=O)c2nc3scc(COCc4ccc(C(=O)O)cc4)c3c(=O)[nH]2)c1: 29.9%
O[C@]1(C(F)(F)F)CCCC[C@H]1Nc1ccc(F)cc1: 20.2%
C[C@@H]1CN(c2cc(-c3nn(C)c4ccc(OC5(C)CC5)cc34)ncn2)C[C@H](C)O1: 5.75%
C[C@@]1(Cc2ccc(C#N)cc2)C(=O)N(c2cc(Cl)cc(Cl)c2)c2ncc(C(=O)NC3(c4nc(C5CCC5)no4)CC3)n21: 29.7%
CN(C)C(=O)Cn1cc(-c2nc([C@@](C)(c3ccc(-c4cnc(N)nc4)cc3)C3CC3)no2)cn1: -12.8%
O=C1CCc2cc(Nc3cc(OC4CCOCC4)c([N+](=O)[O-])cc3Cl)ccc2N1: 3.3%
O=C(NC[C@@H]1[C@H]2CN(C(=O)OCc3cc(C(F)(F)F)cc(C(F)(F)F)c3)C[C@@H]12)c1ccc2[nH]nnc2c1: 13.3%
